Published values collected from several papers.
Protocols differ between the studies behind these lines. Several values in a cell are separate wells, animals, samples, runs or records.
Target: Ephrin type-B receptor 2 (EPHB2, Homo sapiens, UniProt P29323)

Compound | test | setting | how to read | endpoint | value
CN1CCN(Cc2ccc(-c3ccc(CO[C@H]4CCC[C@@H]4NC(=O)c4cc(-c5cnn(C)c5)cnc4N)cc3)cc2)CC1 | enzyme activity, inhibitor | 0.1 µM |  | inhibition | 3%
O=C=[N][Ru-4]123([n]4c5ccc(O)cc5c5c6c(c7cc(F)c[n+]1c7c54)C(=O)NC6=O)[S+]1CC[S+]2CC[S+]3CC1 (stereo not drawn) | enzyme activity | 100 nM, human enzyme, added: 10 µM ATP | relative to: untreated | remaining activity | 116%
C=CC(=O)Nc1cccc(-c2cnc3[nH]cc(C(=O)NC(C)(C)C)c3n2)c1 | kinase activity | 0.1 µM |  | inhibition | -2% and -3%
CNC(=O)C1CCN(c2cc(C)c(F)cc2NC(=O)c2ccc(-c3cc(O)ccc3C)c(C)c2)CC1 | binding, competition with immobilised ligand | 1 µM |  | remaining binding | 0.2%
C=CC(=O)N1CCCC(n2c(=O)c3ncccc3n(Cc3ccc(Oc4ccccc4)cc3)c2=O)C1 (stereo not drawn) | cell-free assay, competition with immobilised ligand | 1 µM |  | remaining binding | 100%
CN1CC[C@@H](COc2cnc(C#N)cc2-c2ccn3nc(NC(=O)C4CC4)cc3c2)C1 | enzyme activity, inhibitor | 1 µM |  | inhibition | -6%
NC(=O)C[C@H]1CCc2sc3ncnc(O[C@H]4CC[C@H](N5CCOCC5)CC4)c3c21 | enzyme activity, inhibitor | 10 µM |  | inhibition | 8%
O=c1c(-c2ccc(Cl)c(CN3CCOCC3)c2)coc2cc(O)ccc12 | enzyme activity, inhibitor | 1 µM |  | remaining activity | 99%
Cc1cnc2nc1Nc1cccc(c1)COC/C=C/COCc1cc(ccc1OCCN1CCOCC1)N2 | binding | 0.1 µM |  | remaining binding | 100%
CCn1cc(C(=O)O)c(=O)c2c(N)c(F)c(NC3CCCCC3)cc21 | kinase activity | 0.1 µM, added: ATP at Km |  | inhibition | 1.5%
Cc1ccc(-c2c(/C=C(\C#N)C(=O)NC(C)C)n(CCCO)c3ncnc(N)c23)cc1 | cell-free assay, competition with immobilised ligand | 1 µM |  | remaining binding | 100%
O=C(Cc1ccc(OCc2ccccc2)cc1)NC1(C(=O)O)CCN(C(=O)c2ccc(-c3cccc(Cl)c3)cc2)CC1 | enzyme activity, inhibitor | 10 µM |  | activity vs control | 89%
COc1c(Cl)cccc1Nc1c(-c2ccncc2C#C[C@@]2(C)CCCN2C(=O)/C=C/CN(C)C)[nH]c2c1C(=O)NCC2 | cell-free assay, competition with immobilised ligand | 3 µM |  | remaining binding | 85%
Cc1cccc(O[C@H]2CCC[C@@H](C(C)CNCc3ccncc3)C2)c1 (relative stereo) | kinase activity, kinome panel screening | 1 µM |  | inhibition | -6%
COCC12C(=O)NC3C4(C(OC)CC1O)C1CC5(O)C(OC)C(O)C(OC(C)=O)(C1C5OC(=O)c1ccccc1)C3(O)C(OC)C24 (stereo not drawn) | kinase activity, inhibitor, ProQinase kinase profiling | 25 µM | relative to: control | remaining activity | 99% and 94%

For quick reference, copied from above:
Compound | test | setting | how to read | endpoint | value
NC(=O)C[C@H]1CCc2sc3ncnc(O[C@H]4CC[C@H](N5CCOCC5)CC4)c3c21 | enzyme activity, inhibitor | 10 µM |  | inhibition | 8%
O=C(Cc1ccc(OCc2ccccc2)cc1)NC1(C(=O)O)CCN(C(=O)c2ccc(-c3cccc(Cl)c3)cc2)CC1 | enzyme activity, inhibitor | 10 µM |  | activity vs control | 89%
